Assay results of several laboratories.
Each numbered part is a random draw from the data of one study; scales do not carry over between parts.

Study 1
Target: Sal-like protein 4, full length isoform B (SALL4, Homo sapiens, UniProt Q9UJQ4-2, residues 1-616)
Technique: universal PBM
Molecule type: double-stranded DNA, one strand shown
Medium: in vitro
Tested at: not given
Setting: 8-mer, flanks averaged, mean of replicates
Reading: higher = stronger binding
Measurement: E-score
Residues (chain): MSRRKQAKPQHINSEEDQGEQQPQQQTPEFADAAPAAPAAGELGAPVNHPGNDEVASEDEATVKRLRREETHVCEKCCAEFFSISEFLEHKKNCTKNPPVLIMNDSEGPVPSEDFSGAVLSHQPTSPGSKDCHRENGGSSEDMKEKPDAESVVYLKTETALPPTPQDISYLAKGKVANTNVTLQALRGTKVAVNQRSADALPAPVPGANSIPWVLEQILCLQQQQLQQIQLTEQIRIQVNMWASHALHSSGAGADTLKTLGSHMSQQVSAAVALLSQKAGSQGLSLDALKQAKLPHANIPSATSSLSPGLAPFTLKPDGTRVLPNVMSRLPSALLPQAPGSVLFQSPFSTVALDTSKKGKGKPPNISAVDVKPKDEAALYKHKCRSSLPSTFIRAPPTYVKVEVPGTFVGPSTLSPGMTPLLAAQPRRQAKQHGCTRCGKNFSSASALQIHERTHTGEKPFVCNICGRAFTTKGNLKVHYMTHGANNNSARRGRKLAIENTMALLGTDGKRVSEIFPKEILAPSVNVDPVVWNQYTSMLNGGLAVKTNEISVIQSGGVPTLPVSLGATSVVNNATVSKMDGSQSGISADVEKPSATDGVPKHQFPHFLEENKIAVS
CAATTGAG: -0.163
GACACCGC: -0.286
CAATTAAC: 0.178
ACACCGCC: -0.169
GCGATGCC: -0.358
GTAAGCTA: 0.107
CCAAAGCA: -0.0382
CCAGACCA: -0.156
AATGCCCG: -0.281
GGTGAGGA: -0.129
AGGCAGAA: 0.0683
CAATTTGC: -0.0386
GCGCCTTA: -0.21
ATTCCCGG: -0.12
ACGAGACG: -0.153
AAATACTC: 0.251
AGTGGCTC: -0.182
AAAAGCGC: 0.116
CACCCACC: -0.204
CCCTATTA: 0.288
GAATCCGA: 0.00824
TCGGACAA: 0.105
AATCGGTA: 0.104
GCTATAAC: 0.208
GAACATCC: 0.0175

Study 2
Target: RNA binding protein fox-1 homolog 2, RRM domain, GST-SBP tag (RBFOX2, Homo sapiens, UniProt O43251-10, residues 100-194)
Technique: RNA Bind-n-Seq
Molecule type: RNA
Medium: in vitro
Tested at: 365 nM
Setting: natural RNA segment, single round, ends assumed
Relative to: no-protein control
Reading: higher = stronger binding
Measurement: RBNS enrichment (R)
Shared flanks, not repeated: GGGAGUUCUACAGUCCGACGAUC … UGGAAUUCUCGGGUGCCAA
Target sequence (chain): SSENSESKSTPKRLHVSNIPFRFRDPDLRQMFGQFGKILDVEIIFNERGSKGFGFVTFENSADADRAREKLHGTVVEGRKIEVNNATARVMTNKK
CGAAGCUGGAGGAGGACUGCGUGGGCUGAGAUGCCACCCUUUGAAGGGUGAACAGCAUGGCGGCAUCUGGGCCCCACAGUAACACCUAGUGGCAACCUUGCCUUCCUGAC: 5.29
GUAGUCAUAGACAUAGAUACUGCAGCCUGCCCUCCUCUUGAGGCUGUUUCUGACAAACUAUCAAGACAUUCCGUCCCUCAUCCACCUCAGCUCCCAAAGGCCCACUGCAG: 0.334
CUUCAGGAGAUUAACAACUGGGUGCAGGCCCAGAUGAAAGGGAAGAUUGCCCGGUCCACGAGGGAAAUGCCCAGUGCCCUCAGCAUCCUUCUCCUUGGCGUGGCUUACUU: 0.528
ACCCAGGCCGCAGAGGGAGCAGGAAGAGAUGCUGAUAGUUUGAUCUAGAAACCAGCAGCUACUGGCUCAAAUUCAGGUUCUGGCGUCAAAUAGCGACAUUUCCAGUUUCU: 0.251
ACAAAUCUGAUAACUAUGCAGGUUUAAAUUUUCUUAUCUGAUUUUGGUAAGUAUUCCUUAGGUUUUUCUUUGAAAACCUGGGAUUGAGAGGUUGAUGAAUGGAAAUUCUU: 0.434
AGCAUCGCUGAGCGUUAGACAAAGUGUUACACAGAAUGAUUAAAACUUUCAGACUUCUACCUAUGCUCUUUAGUCCUGUAAAUUGGGUUGUAUUGAUGUCAACUCUGGUG: 0.742
UCUACAGAAGCUGAAAACAGGCGUUUUAGAUAUUGGUAUAUUGGUAUAUGAUAUGGUAUGAUGCUUAUGGUCUGCUAUGAGCAUUCCUGGGCAUACCACAUAACUAGAUG: 0.349
UGAAAGACUUUACCACAUCAGGGCUUCCUGUGGUUCAAAAUAGUUCAGAAUCAUCGUAAUUACAAAACUGAAAAUAAAAGUUCUGAAAAAUGACACAACUCCUAUAACAG: 0.362

Study 3
Target: Histone acetyltransferase KAT6A, both winged helices, GST fusion (KAT6A, Homo sapiens, UniProt Q92794, residues 1-181)
Technique: protein binding microarray
Molecule type: double-stranded DNA, one strand shown
Medium: in vitro
Tested at: not given
Setting: 8-mer, flanks averaged, mean of 2 arrays, mostly near background
Relative to: not given
Reading: higher = stronger binding
Measurement: E-score
Construct (chain): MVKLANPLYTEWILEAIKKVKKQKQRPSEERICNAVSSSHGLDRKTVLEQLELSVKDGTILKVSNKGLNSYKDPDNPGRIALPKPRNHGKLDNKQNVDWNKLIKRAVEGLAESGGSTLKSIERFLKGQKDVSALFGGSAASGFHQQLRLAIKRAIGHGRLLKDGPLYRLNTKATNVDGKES
CACTACCA: -0.0584
GCGAATCA: 0.109
CCACAGCG: 0.105
AGCGTGAG: 0.157
ATACTGTA: -0.0541
GAGGTATC: 0.0188
GATAGTCA: 0.00871
ACCGAAGG: -0.021
ACACTACC: -0.085
ACATACAG: -0.0351
CTGACCGC: 0.196
GAGGCGCC: 0.262
TGCCTCCA: -0.218
GACACACA: 0.0747
ACGTAAAG: -0.0715
CACATGAA: -0.113
ACGTCAGG: -0.129
ACGCTCCT: 0.025
CTACTCAA: -0.0693
GGATAATA: -0.0372
CCATGGGC: -0.163
CAAGCGTA: 0.0522
ATATTGAA: -0.153

Study 4
Target: Ras GTPase-activating protein-binding protein 1, full length (G3BP1, Homo sapiens, UniProt Q13283)
UniProt Q13283, sequence (whole entry, looked up): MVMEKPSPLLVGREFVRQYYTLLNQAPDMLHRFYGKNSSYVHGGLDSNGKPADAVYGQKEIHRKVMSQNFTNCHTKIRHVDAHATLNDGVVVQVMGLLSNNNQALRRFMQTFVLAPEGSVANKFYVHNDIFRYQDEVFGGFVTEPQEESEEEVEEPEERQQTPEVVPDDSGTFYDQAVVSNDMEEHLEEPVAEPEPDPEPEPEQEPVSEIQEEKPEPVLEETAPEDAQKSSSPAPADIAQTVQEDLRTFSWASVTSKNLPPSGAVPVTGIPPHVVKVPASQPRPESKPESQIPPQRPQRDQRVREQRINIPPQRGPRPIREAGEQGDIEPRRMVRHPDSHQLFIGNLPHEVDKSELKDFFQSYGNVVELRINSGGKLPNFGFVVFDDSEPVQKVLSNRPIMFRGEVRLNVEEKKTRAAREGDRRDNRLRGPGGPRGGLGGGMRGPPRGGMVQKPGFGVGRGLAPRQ
Technique: RNA Bind-n-Seq
Molecule type: RNA
Medium: in vitro
Tested at: 200 nM
Setting: whole 134-nt RNA, ends assumed
With: 150 mM LiCl
Relative to: input library
Reading: higher = stronger binding
Measurement: log2 enrichment
All molecules: 7-deaza-guanosine replaces G
Shared flanks, not repeated: GGGAGUUCUACAGUCCGACGAUC … UGGAAUUCUCGGGUGUCAAGG
UGGCCCUGGUGGCAUGCGGGGAGGAAGAGGUGGCCUCAUGGAUCGUGGUGGUCCCGGUGGAAUGUUCAGAGGUGCCCGUGGUGGAGACAG: -0.376
ACCAUGCAGGUGGGUAUCUUUGGGAAGUGGGGCAAGGGGGGGAUAGGGAGGGGGGUAACACUUUGGGAACAGGUGGUCCCAGGUCGUUUC: 0.119
CCUGUGCUACACAUCGUAUGUACCGAAUCGGGCCCCCCCGGGCCCCCCCGGCCCCCCCGGAAAGUAUUAUGUUACGCCGUUCGGAUCUGC: 0.392
AAGUCCUGUGCUACACAUCGUAUGUACCGAAUCGGGAGGGAAAGGGUUUUUUUGGGAAAGUAUUAUGUUACGCCGUUCGGAUCUGCACUU: -0.617
UUCCUCAAGUCCUGUGCUACACAUCGUAUGUACCGAAUCGGAGGUGGUGGAAAGUAUUAUGUUACGCCGUUCGGAUCUGCACUUCCAGCA: -1.46
AAGUCCUGUGCUACACAUCGUAUGUACCGAAUCGGAAAAAAAGGAAAAAGGUUUGGAAAGUAUUAUGUUACGCCGUUCGGAUCUGCACUU: -2.72
UCCUCAAGUCCUGUGCUACACAUCGUAUGUACCGAAUCGGGCGGCGGGCGGAAAGUAUUAUGUUACGCCGUUCGGAUCUGCACUUCCAGC: 0.779
UCAAGUCCUGUGCUACACAUCGUAUGUACCGAAUCGGGUUGGGGUUGGGGUUGGGAAAGUAUUAUGUUACGCCGUUCGGAUCUGCACUUC: -0.412

A few entries again (study 1):
AGTGGCTC: -0.182
CAATTGAG: -0.163
ACACCGCC: -0.169
GAACATCC: 0.0175
GCTATAAC: 0.208
GACACCGC: -0.286
GAATCCGA: 0.00824
CAATTTGC: -0.0386
CCAGACCA: -0.156
